Measured values pooled from the literature.
Protocols differ between the studies behind these lines.

Structure (SMILES)	technique	refers to	matrix	temperature	notes	pKa
NCC1CC2(CC2)C1	potentiometric titration	–	methanol-water	25 °C	amine hydrochloride	10.1
FC(F)(F)C1(c2ccc(CN3CCN(C(c4ccccc4)c4ccc(Cl)cc4)CC3)cc2)CC1 (stereo not shown)	acid-base titration	–	–	–	–	3.41
NS(=O)(=O)c1ccc(C(=O)Cn2cnc3ccccc32)cc1	–	–	–	–	sulfonamide group	8.84
c1cc2nc(c1)CSCc1cccc(n1)CSC2	–	–	0.1 M NaCl	25 °C	HL+ deprotonation	5.47
N[C@@H](CC(=O)O)C(=O)OC(C(=O)O)c1ccc(Br)cc1[N+](=O)[O-] (mixture of isomers)	pH-rate profile of hydrolysis	benzylic carboxylic acid	aqueous buffer, 12.5% DMSO-d6	–	–	< 4.2
CC(C)(C)N1Cc2cccc(n2)CN(C(C)(C)C)Cc2cc(-c3nc4ccccc4s3)cc(n2)C1	–	–	0.1 M NaCl	25 °C	HL+ deprotonation	10.1
O=C(NC[C@@H](Cc1ccccc1)N1CCC(O)(C(F)(F)F)CC1)C1(c2ccc(Cl)cc2)CCCC1	UV-metric	–	–	–	–	6.09
Cc1ccc2c(Br)ccc(O)c2n1	capillary electrophoresis	–	–	–	–	9.2
NCC1CC2(CC2)CO1 (stereo not shown)	potentiometric titration	–	methanol-water	25 °C	amine hydrochloride	8.9
Cc1cc(O)c2nc(C)ccc2c1	capillary electrophoresis	–	–	–	–	10
NS(=O)(=O)c1c(F)c(F)c(N2CCOCC2)c(F)c1F	–	–	–	–	sulfonamide group	8.61
Cc1ccc2cc(Br)cc(O)c2n1	capillary electrophoresis	–	–	–	–	9.1
O=C(O)C1CC2(CC2)C1	potentiometric titration	–	methanol-water	25 °C	carboxylic acid	4.6
O=C(O)c1cccnc1Nc1cccc(C(F)(F)F)c1	–	–	–	–	basic	< 2
O=C(O)C1CC2(CC2)CO1 (stereo not shown)	potentiometric titration	–	methanol-water	25 °C	carboxylic acid	3.5
Cc1ccc2cc(Cl)cc(O)c2n1	capillary electrophoresis	–	–	–	–	8.9

Structure (SMILES)	technique	refers to	matrix	temperature	notes	pKa
Cc1cc(=O)[nH]c(SCC(=O)c2ccc(S(N)(=O)=O)c(Cl)c2)n1	–	–	–	–	sulfonamide group	8.9
O=C(O)C1CC2(CO1)CC(F)(F)C2 (stereo not shown)	potentiometric titration	–	methanol-water	25 °C	carboxylic acid	3.4
c1cc2nc(c1)CSCc1cc(-c3nc4ccccc4s3)cc(n1)CSC2	–	–	0.1 M NaCl	25 °C	H2L2+ deprotonation	4.1
O=C(NC[C@@H](Cc1ccc(F)cc1)N1CCC(O)(C(F)(F)F)CC1)C1(c2ccc(Cl)cc2)CCCC1	UV-metric	–	–	–	–	5.89
NS(=O)(=O)c1ccc(SCCO)cc1	–	–	–	–	sulfonamide group	9.96
Cc1ccc2ccc(Cl)c(O)c2n1	capillary electrophoresis	–	–	–	–	8.65
NS(=O)(=O)c1c(F)c(F)c(S(=O)(=O)CCO)c(NC2CCCCCCC2)c1F	–	–	–	–	sulfonamide group	8.01
COc1ccc(O)c2nc(C)ccc12	capillary electrophoresis	–	–	–	–	10.6
O=C(O)C12CC(c3ccccc3)(C1)C2(F)F	potentiometric titration	–	methanol-water 1:4 with 150 mM NaCl	25 °C	carboxylic acid group	3.9
COC(=O)CCCNC(=O)c1cc(S(N)(=O)=O)c(Cl)cc1NC1CCCCC1	–	–	–	–	sulfonamide group	9.5
Cc1ccc2ccc(C)c(O)c2n1	capillary electrophoresis	–	–	–	–	10.7
NS(=O)(=O)c1c(F)c(F)c(SCCc2ccccc2)c(F)c1N1CCOCC1	–	–	–	–	sulfonamide group	8.67
O=C(O)C1CC2(CCC2)C1	potentiometric titration	–	methanol-water	25 °C	carboxylic acid	4.6
Cc1ccc2ccc(Br)c(O)c2n1	capillary electrophoresis	–	–	–	–	8.6
NS(=O)(=O)c1cc(-c2ccccc2)cc(-c2ccccc2)c1	–	–	–	–	sulfonamide group	10.4
